Results gathered from unrelated publications.
± marks the error that the study gave. No end group written: not given here.
CHRM4: Muscarinic acetylcholine receptor M4 (CHRM4, Homo sapiens, UniProt P08173)
Sequence of UniProt P08173 (whole entry, looked up): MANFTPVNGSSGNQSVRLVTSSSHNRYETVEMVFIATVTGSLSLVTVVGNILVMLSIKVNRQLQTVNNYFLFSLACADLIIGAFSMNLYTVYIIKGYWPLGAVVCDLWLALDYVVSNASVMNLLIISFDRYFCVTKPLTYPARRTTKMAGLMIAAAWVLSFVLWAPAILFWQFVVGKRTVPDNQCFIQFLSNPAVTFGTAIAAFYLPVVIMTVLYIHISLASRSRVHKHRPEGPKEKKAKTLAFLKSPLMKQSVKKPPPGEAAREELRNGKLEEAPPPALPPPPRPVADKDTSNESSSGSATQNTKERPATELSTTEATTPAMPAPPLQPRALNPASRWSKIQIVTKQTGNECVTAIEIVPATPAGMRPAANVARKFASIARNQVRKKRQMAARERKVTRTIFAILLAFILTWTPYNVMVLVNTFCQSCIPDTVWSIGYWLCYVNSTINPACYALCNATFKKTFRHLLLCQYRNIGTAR
CHRM1: Muscarinic acetylcholine receptor M1 (CHRM1, Homo sapiens, UniProt P11229)
Sequence of UniProt P11229 (whole entry, looked up): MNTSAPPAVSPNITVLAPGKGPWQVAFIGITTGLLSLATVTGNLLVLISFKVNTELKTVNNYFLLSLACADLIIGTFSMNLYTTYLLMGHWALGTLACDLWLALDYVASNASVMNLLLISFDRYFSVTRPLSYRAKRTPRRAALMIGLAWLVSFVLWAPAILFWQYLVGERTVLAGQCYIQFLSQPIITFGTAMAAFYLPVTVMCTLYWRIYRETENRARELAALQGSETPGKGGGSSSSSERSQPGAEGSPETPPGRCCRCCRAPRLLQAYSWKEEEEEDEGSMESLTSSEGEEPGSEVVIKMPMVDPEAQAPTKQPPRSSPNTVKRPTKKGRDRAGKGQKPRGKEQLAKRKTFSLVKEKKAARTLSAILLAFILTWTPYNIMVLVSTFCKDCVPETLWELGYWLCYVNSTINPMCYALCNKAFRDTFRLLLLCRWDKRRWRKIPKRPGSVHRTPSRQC
SCN10A: Sodium channel protein type 10 subunit alpha (SCN10A, Homo sapiens, UniProt Q9Y5Y9)
Sequence of UniProt Q9Y5Y9 (whole entry, looked up): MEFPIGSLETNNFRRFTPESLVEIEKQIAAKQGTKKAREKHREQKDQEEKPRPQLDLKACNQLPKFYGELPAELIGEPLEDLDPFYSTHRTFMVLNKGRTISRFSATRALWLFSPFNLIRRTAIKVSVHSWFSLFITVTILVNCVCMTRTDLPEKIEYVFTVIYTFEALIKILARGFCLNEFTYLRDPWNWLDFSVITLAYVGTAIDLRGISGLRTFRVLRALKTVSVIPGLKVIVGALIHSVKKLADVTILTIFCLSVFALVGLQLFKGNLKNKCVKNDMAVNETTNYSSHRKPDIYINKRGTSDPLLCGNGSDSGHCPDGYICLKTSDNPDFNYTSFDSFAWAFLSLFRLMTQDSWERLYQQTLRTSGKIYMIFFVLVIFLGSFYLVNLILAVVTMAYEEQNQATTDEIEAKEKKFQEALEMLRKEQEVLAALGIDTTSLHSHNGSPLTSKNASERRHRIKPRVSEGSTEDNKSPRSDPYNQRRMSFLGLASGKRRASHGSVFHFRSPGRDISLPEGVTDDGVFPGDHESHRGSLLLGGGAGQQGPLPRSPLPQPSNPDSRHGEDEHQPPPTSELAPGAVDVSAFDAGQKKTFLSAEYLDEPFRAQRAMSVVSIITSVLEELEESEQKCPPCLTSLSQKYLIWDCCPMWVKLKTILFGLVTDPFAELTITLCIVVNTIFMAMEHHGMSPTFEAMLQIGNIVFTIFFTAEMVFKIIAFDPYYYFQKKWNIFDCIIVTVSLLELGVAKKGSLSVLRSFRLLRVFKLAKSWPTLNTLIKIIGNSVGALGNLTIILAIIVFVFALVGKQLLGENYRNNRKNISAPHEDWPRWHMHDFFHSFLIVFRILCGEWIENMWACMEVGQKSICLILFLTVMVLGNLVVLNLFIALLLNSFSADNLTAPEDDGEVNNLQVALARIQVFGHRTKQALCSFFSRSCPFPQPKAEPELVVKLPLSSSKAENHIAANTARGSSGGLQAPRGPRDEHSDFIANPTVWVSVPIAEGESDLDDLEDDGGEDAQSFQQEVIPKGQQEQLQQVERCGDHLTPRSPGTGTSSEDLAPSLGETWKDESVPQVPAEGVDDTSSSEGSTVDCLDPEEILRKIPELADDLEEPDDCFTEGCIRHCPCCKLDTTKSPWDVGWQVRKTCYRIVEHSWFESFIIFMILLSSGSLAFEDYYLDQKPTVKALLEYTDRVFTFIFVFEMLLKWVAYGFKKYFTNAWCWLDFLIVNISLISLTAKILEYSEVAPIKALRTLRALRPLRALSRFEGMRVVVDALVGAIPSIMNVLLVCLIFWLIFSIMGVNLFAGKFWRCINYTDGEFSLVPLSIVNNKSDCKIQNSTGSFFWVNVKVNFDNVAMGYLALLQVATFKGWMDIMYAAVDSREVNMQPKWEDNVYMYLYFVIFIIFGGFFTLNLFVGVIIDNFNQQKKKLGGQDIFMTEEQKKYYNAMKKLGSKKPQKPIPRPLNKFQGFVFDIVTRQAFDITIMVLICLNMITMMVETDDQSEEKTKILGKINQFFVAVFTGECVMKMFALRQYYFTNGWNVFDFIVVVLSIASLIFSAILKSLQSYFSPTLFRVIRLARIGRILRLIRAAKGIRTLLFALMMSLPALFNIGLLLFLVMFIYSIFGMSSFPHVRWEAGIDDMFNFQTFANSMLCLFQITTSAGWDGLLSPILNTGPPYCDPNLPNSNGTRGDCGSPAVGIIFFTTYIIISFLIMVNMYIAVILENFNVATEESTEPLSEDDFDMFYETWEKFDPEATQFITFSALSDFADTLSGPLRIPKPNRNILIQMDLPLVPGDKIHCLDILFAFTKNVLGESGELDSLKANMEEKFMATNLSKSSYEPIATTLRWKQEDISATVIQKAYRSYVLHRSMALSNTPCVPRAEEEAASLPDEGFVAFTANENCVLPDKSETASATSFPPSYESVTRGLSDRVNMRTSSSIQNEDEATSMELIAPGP
Prkar2b S112A holoenzyme with catalytic subunit: cAMP-dependent protein kinase type II-beta regulatory subunit, holoenzyme with catalytic subunit (Prkar2b, Rattus norvegicus, UniProt P12369, S112A)
Sequence of UniProt P12369 (whole entry, unmodified, looked up): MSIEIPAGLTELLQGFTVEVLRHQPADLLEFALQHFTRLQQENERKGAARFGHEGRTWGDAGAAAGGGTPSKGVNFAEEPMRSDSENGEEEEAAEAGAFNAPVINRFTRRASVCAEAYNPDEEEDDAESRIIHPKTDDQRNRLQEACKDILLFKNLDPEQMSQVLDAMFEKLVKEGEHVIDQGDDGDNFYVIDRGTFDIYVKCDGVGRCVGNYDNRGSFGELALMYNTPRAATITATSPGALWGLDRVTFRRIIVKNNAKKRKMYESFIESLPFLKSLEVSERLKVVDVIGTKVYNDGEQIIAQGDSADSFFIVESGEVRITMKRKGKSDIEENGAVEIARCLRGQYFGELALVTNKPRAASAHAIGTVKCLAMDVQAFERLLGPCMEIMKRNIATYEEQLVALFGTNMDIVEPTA
T1: c-di-GMP riboswitch (Clostridium acetobutylicum); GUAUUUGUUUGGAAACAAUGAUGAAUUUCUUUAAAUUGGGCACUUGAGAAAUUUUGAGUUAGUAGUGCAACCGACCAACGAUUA
T2: ssRNA, CUG repeat (Homo sapiens); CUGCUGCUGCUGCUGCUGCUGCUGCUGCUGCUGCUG
T3: DNA G4, G-quadruplex (Homo sapiens); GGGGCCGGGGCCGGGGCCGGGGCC
T4: RNA G-quadruplex, G-quadruplex, K+ folded (Homo sapiens); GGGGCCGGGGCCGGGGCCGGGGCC
B1: side-chain stapled; chain VRTKQEARKSTGG (also: sidechain bridge or staple (positions not given here))
Sequence of UniProt P54750 (whole entry, looked up): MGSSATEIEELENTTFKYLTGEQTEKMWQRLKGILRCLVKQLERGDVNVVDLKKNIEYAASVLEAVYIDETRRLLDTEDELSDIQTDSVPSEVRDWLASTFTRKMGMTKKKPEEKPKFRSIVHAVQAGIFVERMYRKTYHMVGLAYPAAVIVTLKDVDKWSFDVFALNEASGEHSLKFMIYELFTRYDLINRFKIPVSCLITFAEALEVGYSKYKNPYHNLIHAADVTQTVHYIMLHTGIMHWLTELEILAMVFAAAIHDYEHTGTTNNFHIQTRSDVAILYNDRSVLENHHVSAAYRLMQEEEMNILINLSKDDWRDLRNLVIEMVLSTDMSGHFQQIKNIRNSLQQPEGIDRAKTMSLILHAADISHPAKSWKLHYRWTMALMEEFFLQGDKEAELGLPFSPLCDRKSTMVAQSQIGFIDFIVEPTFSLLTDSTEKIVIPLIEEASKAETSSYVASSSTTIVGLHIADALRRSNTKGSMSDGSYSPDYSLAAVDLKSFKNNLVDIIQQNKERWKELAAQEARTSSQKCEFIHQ
Sequence of UniProt P05093 (whole entry, looked up): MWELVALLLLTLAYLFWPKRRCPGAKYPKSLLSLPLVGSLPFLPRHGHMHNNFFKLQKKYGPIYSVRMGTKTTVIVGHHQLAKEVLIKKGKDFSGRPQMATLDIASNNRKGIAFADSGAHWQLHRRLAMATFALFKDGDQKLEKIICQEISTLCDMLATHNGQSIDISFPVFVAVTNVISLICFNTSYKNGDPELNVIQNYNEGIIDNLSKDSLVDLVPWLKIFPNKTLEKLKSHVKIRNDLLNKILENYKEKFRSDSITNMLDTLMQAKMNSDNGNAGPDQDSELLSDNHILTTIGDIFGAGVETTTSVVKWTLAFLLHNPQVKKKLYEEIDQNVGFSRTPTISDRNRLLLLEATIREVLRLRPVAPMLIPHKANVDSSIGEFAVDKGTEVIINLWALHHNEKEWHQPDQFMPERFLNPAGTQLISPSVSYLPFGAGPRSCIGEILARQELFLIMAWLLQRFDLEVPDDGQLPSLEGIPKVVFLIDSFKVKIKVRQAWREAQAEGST
Sequence of UniProt P16257 (whole entry, looked up): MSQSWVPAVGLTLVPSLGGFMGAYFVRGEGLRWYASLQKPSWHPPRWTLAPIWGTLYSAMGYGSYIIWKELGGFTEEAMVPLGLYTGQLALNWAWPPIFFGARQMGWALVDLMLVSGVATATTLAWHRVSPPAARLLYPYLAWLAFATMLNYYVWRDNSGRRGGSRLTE
Sequence of UniProt Q8K0E8 (whole entry, looked up): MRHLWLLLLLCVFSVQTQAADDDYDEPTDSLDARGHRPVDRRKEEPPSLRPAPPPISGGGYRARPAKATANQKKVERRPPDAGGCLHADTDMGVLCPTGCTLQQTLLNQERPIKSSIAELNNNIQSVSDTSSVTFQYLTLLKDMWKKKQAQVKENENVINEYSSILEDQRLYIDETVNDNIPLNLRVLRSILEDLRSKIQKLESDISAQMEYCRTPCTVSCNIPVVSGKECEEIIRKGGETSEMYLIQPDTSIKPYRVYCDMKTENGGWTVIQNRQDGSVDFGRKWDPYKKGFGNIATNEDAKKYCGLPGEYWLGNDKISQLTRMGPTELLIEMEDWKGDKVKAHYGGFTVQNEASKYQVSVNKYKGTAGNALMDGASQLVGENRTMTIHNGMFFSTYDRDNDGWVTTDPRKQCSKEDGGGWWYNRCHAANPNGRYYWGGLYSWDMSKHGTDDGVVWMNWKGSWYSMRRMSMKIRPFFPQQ

COc1ccc(C)c2sc(NC(=O)c3ccc(F)c(F)c3)nc12 — activity (CHRM4; calcium mobilization, positive allosteric modulator; CHO expressing hM4 and Gqi5; concentration not given, together with: acetylcholine EC20): inactive
GGSHPSRPRAG (99mTc-labelled) — uptake (Fga/Fgb/Fgg (Mus musculus, UniProt E9PV24+Q8K0E8+Q8VCM7); peptide, heparinized mouse, carotid thrombosis, contralateral clot-free carotid; 3 µCi/g, 2 h): 1.1 ± 0.5 %ID/g
Cc1cc(F)c(Nc2ncnc3cc(OCc4ccccc4)ccc23)cc1O — maximal ATPase stimulation (Broad substrate specificity ATP-binding cassette transporter ABCG2 (ABCG2, Homo sapiens, UniProt Q9UNQ0); vanadate-sensitive ATPase activity, activator; membrane vesicles; unit not given; relative to: basal): 3.18
O=C(O)CO — transcription derepression (Transcriptional regulator GlcR (Paracoccus denitrificans, UniProt A1BAC0); inducer, in vitro transcription fluorescence; 10 mM; relative to: no effector): 9.4 fold
O=c1cc(-c2ccccc2OCc2ccc(-c3cn[nH]c3)cc2)ccn1C1CCCCC1O (stereo not drawn) — α (cooperativity) (CHRM1; IP1 accumulation, positive allosteric modulator, operational allosteric model; human cells; pKB fixed to published value, together with: acetylcholine): 1.06 ± 0.08
Cn1cc(-c2ccc(COc3ccccc3-c3cc(=O)n(C4CCCCC4O)cn3)cn2)cn1 (stereo not drawn) — change in baseline activity (CHRM1; allosteric agonist, IP1 accumulation; CHO-M1 cells; 1 µM, unit not given; relative to: maximum ACh response): 36 ± 3.3
C=CC(C)(C)c1cc2cc(-c3ccc(O)cc3O)c(=O)oc2cc1O — concentration doubling activity (quinone reductase; inducer; Hepa1c1c7): 13.3 µM
Cn1c(N)nc2c(ncn2[C@@H]2O[C@@H]3COP(=O)(O)O[C@H]4[C@@H](O)[C@H](n5cnc6c(=O)[nH]c(N)nc65)O[C@@H]4COP(=O)(O)O[C@H]3[C@H]2O)c1=O — Kd (T1, c-di-GMP riboswitch (Clostridium acetobutylicum); competitor, competition gel-shift; 4-24 h, pH 6.8, 22 °C, together with: radiolabelled c-di-GMP): 0.16 µM
COC(=O)c1ccc(COc2ccccc2-c2cc(=O)n(C3CCCCC3O)cn2)cc1 (stereo not drawn) — ΔpEC50 of ACh (CHRM1; positive allosteric modulator, IP1 accumulation; CHO-M1 cells; 1 µM, 60 min, 37 °C, together with: ACh; relative to: ACh alone, higher = stronger potentiation): 0.71 ± 0.09 log units
CCc1c(C)n(Cc2ccc(-c3ccccc3C(=O)O)cc2)c2ccc(Br)cc12 — Emax (Peroxisome proliferator-activated receptor gamma (PPARG, Homo sapiens, UniProt P37231); COS-7; 10 µM, 39 h): 33.8%
CCN(c1ccccc1)S(=O)(=O)C1CC2OC1C(c1ccc(O)cc1)=C2c1ccc(O)cc1 (stereo not drawn) — efficacy (Estrogen receptor beta (ESR2, Homo sapiens, UniProt Q92731); reporter gene, antagonist; HepG2; together with: estradiol 10 nM; relative to: E2 response, negative is inverse agonism): -10 ± 2%
COc1ccc2cc1Oc1ccc(cc1)C[C@H]1c3c(cc4c(c3Oc3cc5c(cc3OC)CCN(C)[C@@H]5C2)OCO4)CCN1C — retention factor (Heat shock protein HSP 90-alpha, C-terminal domain (HSP90AA1, Homo sapiens, UniProt P07900); binding, zonal affinity chromatography; pH 7.4, 25 °C): 22.9
CCCNC(C)C(=O)Nc1c(C)csc1C(=O)OCCC (stereo not drawn) — capacity factor k′ (SCN10A; cell membrane chromatography; higher = stronger binding): 29
Oc1nc(Nc2ccc(F)cc2)cc2ccccc12 — IC50 (T2, ssRNA, CUG repeat (Homo sapiens); competition with MBNL1, competitor, TR-FRET): 12 µM
COC(=O)c1scc(C)c1NC(=O)C(C)N1CC(C)OC(C)(C)C1 (stereo not drawn) — capacity factor k′ (SCN10A; cell membrane chromatography; higher = stronger binding): 44
CCCn1cc(-c2ccc(COc3ccccc3-c3cc(=O)n(C4CCCCC4O)cn3)cc2)cn1 (stereo not drawn) — ΔpEC50 of ACh (CHRM1; positive allosteric modulator, IP1 accumulation; CHO-M1 cells; 1 µM, 60 min, 37 °C, together with: ACh; relative to: ACh alone, higher = stronger potentiation): 1.49 ± 0.16 log units
CCCSc1nc2c([nH]1)c(=O)n(C)c(=O)n2C — remaining activity (Progesterone receptor (PGR, Homo sapiens, UniProt P06401); reporter gene, antagonist, MMTV-luciferase; T47D/A1-2; 10 µM, 24 h, together with: 5 nM progesterone; relative to: maximal activity): 89%
O=c1cc(N2CCOCC2)oc2c(OCc3ccccc3)cccc12 — fold change in selectivity (Phosphatidylinositol 4,5-bisphosphate 3-kinase catalytic subunit alpha isoform (PIK3CA, Homo sapiens, UniProt P42336, H855E); enzyme activity; concentration not given, His-Glu swap; relative to: wild type): 4
CC(=O)[C@H]1CC[C@H]2[C@@H]3CCC4=CC(=O)CC[C@]4(C)[C@H]3CC[C@]12C — maximal ligand binding increase (CYP17A1/POR, FMN domain fusion (Homo sapiens, UniProt P05093+P16435); UV-visible difference spectroscopy; FMN domain fusion; relative to: CYP17A1): 15%
CCCCCCCO — binding heat capacity change (Major urinary protein 1 (Mup1, Mus musculus, UniProt P11588); isothermal titration calorimetry; concentration not given, pH 7.4, 278-308 K): -663 ± 56 J/(K·mol)
O=c1cc(-c2ccccc2OCc2ccc([N+](=O)[O-])cc2)ncn1C1CCCCC1O (stereo not drawn) — change in baseline activity (CHRM1; allosteric agonist, IP1 accumulation; CHO-M1 cells; 1 µM, unit not given; relative to: maximum ACh response): 31.3 ± 2.7
NC(=O)NO — apparent second-order rate constant (nrdA/nrdB, with alpha subunit (Chlamydia trachomatis serovar D, UniProt O84834+O84835); Mn(IV)/Fe(III) cofactor reduction, stopped-flow absorption; 22 °C, fast phase, turnover conditions, together with: CDP, ATP and DTT): 8 ± 4 M⁻¹ s⁻¹
CC(=O)Cc1cc2c(c(O)c1C(=O)O)-c1c(c(O)c3oc4c(O[C@@H]5OC(C(=O)O)=C[C@H](O)[C@H]5O)cccc4c(=O)c3c1O)CC2 — Kd (T3, DNA G4, G-quadruplex (Homo sapiens); fluorescence intensity titration; pH 6.8, KCl 8 mM, one site with Hill slope): 2200 µM
NCCCCCCNc1nc2c(N)ncnc2n1[C@@H]1O[C@@H]2COP(=O)(O)O[C@H]2[C@H]1O — selectivity ratio (Prkar2b S112A holoenzyme with catalytic subunit; PKA holoenzyme activation, activator, fluorescence anisotropy; relative to: RIIβ over RIα, higher = RIIβ-selective): 0.6
C[n+]1ccc(-c2c3nc(c(-c4cc[n+](C)cc4)c4ccc([nH]4)c(-c4cc[n+](C)cc4)c4nc(c(-c5cc[n+](C)cc5)c5ccc2[nH]5)C=C4)C=C3)cc1 — Kd (T4, RNA G-quadruplex, G-quadruplex, K+ folded (Homo sapiens); biolayer interferometry; pH 7.0, 30 °C, KCl 185 mM): 0.05 µM
COC(=O)c1scc(C)c1NC(=O)C(C)N1CCCCC1 (stereo not drawn) — capacity factor k′ (SCN10A; cell membrane chromatography; higher = stronger binding): 37
CN(C)S(=O)(=O)c1ccc(COc2ccccc2-c2cc(=O)n(C3CCCCC3O)cn2)cc1 (stereo not drawn) — change in baseline activity (CHRM1; allosteric agonist, IP1 accumulation; CHO-M1 cells; 1 µM, unit not given; relative to: maximum ACh response): 14.4 ± 2.2
COc1cc(F)ccc1-c1nc(Nc2nc3ccccc3o2)ncc1C#N — maximal response (Metabotropic glutamate receptor 5 (Grm5, Rattus norvegicus, UniProt P31424); calcium mobilization, negative allosteric modulator; together with: glutamate EC80; relative to: maximal glutamate response): 1.5 ± 0.4%
C[C@H](N)C(=O)N[C@@H](C)C(=O)N[C@@H](CCCCN)C(=O)N[C@@H](CCCCN)C(=O)N[C@@H](C)C(=O)N[C@@H](C)C(=O)N[C@@H](C)C(=O)N[C@@H](CCCCN)C(=O)N[C@@H](CCCCN)C(=O)N[C@@H](C)C(=O)N[C@@H](C)C(=O)N[C@@H](C)C(=O)N[C@@H](CCCCN)C(=O)N[C@@H](CCCCN)C(=O)N[C@@H](C)C(=O)N[C@@H](C)C(=O)N[C@@H](C)C(=O)N[C@@H](CCCCN)C(=O)N[C@@H](CCCCN)C(=O)N[C@@H](C)C(N)=O — concentration for full EtBr displacement (calf thymus DNA; DNA binding; ctDNA 100 µM, together with: ethidium bromide 4 µM): 15 µM
COc1ccc(C)c2sc(NC(=O)C3=C(C)OCCO3)nc12 — activity (CHRM4; calcium mobilization, positive allosteric modulator; CHO expressing hM4 and Gqi5; concentration not given, together with: acetylcholine EC20): inactive
N[C@@H](CC(=O)O)C(=O)O — Hill coefficient (Excitatory amino acid transporter 3 (SLC1A1, Oryctolagus cuniculus, UniProt P31597, D444E); sodium dependence of anion current; Xenopus oocytes; 2 mM, together with: thiocyanate 10 mM): 2.7 ± 0.4
COc1ccc(C)c2sc(C(=O)NC3CCCCC3)nc12 — activity (CHRM4; calcium mobilization, positive allosteric modulator; CHO expressing hM4 and Gqi5; concentration not given, together with: acetylcholine EC20): inactive
CNc1nc2c(N)ncnc2n1[C@@H]1O[C@@H]2COP(=O)([O-])O[C@H]2[C@H]1O.[Na+] — selectivity ratio (Prkar2b S112A holoenzyme with catalytic subunit; PKA holoenzyme activation, activator, fluorescence anisotropy; relative to: RIIβ over RIα, higher = RIIβ-selective): 0.5
Clc1ccc2[nH]ccc2c1 — conversion (Dehaloperoxidase B, ferric (Amphitrite ornata, UniProt Q9NAV7); substrate, HPLC; 5% methanol; 5 min, pH 7, 25 °C, enzyme 10 µM, together with: H2O2 500 µM): 37.5%
Ac-GPSLNPFDEED-NH2 (N-acetyl, C-amide) — Ka (mouse EHD1 EH domain; binding, ITC; peptide; pH 7.0, 20 °C, KCl 0 mM): 814000 M⁻¹
O=c1cc(-c2ccccc2OCc2ccc(-c3cn[nH]c3)cc2)ncn1C1CCCCC1O (stereo not drawn) — ΔpEC50 of ACh (CHRM1; positive allosteric modulator, IP1 accumulation; CHO-M1 cells; 1 µM, 60 min, 37 °C, together with: ACh; relative to: ACh alone, higher = stronger potentiation): 1.69 ± 0.18 log units
CN(C)C(=O)Cc1nn(-c2cccc([18F])n2)c(=O)c2c1c1ccc(Cl)cc1n2C — tumour tracer binding (Translocator protein (Tspo, Rattus norvegicus, UniProt P16257); PET displacement; C6 glioma-bearing rats; iv, 10 mg/kg, approx. 30 min after tracer; relative to: peak uptake): ~40%
COC(=O)c1ccn2c(NCCN3CCOCC3)c(-c3cccn3C)nc2c1 — aggregation concentration (CHRM1; agonist; assay interference): > 10 µM
Cc1ccc(COc2ccccc2-c2cc(=O)n(C3CCCCC3O)cn2)cn1 (stereo not drawn) — ΔpEC50 of ACh (CHRM1; positive allosteric modulator, IP1 accumulation; CHO-M1 cells; 10 µM, 60 min, 37 °C, together with: ACh; relative to: ACh alone, higher = stronger potentiation): 1.35 ± 0.16 log units
B1 — methylation conversion (Histone-lysine N-methyltransferase SETD7 (SETD7, Homo sapiens, UniProt Q8WTS6); peptide methylation, substrate, MALDI-TOF MS; 10 µM, 3 h, pH 8.0, 37 °C, enzyme 500 nM, together with: SAM 30 µM): ≥ 90%
COc1cc2c(cc1OC)-c1c/c(=N\c3c(C)cc(C)cc3C)n(C)c(=O)n1CC2 — IC50 (Dual specificity calcium/calmodulin-dependent 3',5'-cyclic nucleotide phosphodiesterase 1A (PDE1A, Homo sapiens, UniProt P54750); cGMP hydrolysis, inhibitor; up to 50 µM): inactive
NC(=O)c1ccc(COc2ccccc2-c2cc(=O)n(C3CCCCC3O)cn2)cc1 (stereo not drawn) — ΔpEC50 of ACh (CHRM1; positive allosteric modulator, IP1 accumulation; CHO-M1 cells; 1 µM, 60 min, 37 °C, together with: ACh; relative to: ACh alone, higher = stronger potentiation): 1.71 ± 0.15 log units
